Experimental data collected from several papers.
Each line is one published result; not all experiments were run side by side. Several values in a cell are separate wells, animals, samples, runs or records. Numbers after ± are the reported error.
WD repeat-containing protein 91 WD40 domain, residues 392–747: WD repeat-containing protein 91, WD40 domain, residues 392–747 (Homo sapiens, UniProt A4D1P6)
Glutamate receptor 2: Glutamate receptor 2 (Homo sapiens, UniProt P42262)
Genome polyprotein NS3 helicase domain: Genome polyprotein, NS3 helicase domain (Hepatitis C virus genotype 1b, UniProt Q9WMX2)
ESR1: Estrogen receptor (ESR1, Homo sapiens, UniProt P03372)
CALM1 Ca2+-bound C-lobe: Calmodulin-1, Ca2+-bound C-lobe (CALM1, Homo sapiens, UniProt P0DP23)
T1: RNA aptamer; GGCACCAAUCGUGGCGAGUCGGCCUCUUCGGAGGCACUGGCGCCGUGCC

`N#CC1CCN(C(=O)c2ccc(CSc3cc(Cl)ccc3Cl)cc2)CC1` gave an SPR response of 11.3 RU and 14.2 RU (WD repeat-containing protein 91 WD40 domain, residues 392–747; binding, SPR single-concentration screen; 45 µM).
With `CN1C(C(=O)Nc2ccccn2)=C(O)c2sc(Cl)cc2S1(=O)=O` the activation was 0.73 fold (Nuclear receptor subfamily 4 group A member 3, ligand-binding domain (Homo sapiens, UniProt Q92570); reporter gene, Gal4 hybrid reporter; 30 µM; relative to: vehicle).
The potentiation of `O=C1NC(=O)C(c2ccccc2)(c2ccccc2)N1` is reported as 99% (Glutamate receptor 2; ion current, positive allosteric modulator, SyncroPatch patch clamp; HEK293; 30 µM).
`N[C@H](COP(=O)(O)O)Cc1c[nH]cn1` has a Km of 52 ± 5 µM (Delta; substrate, coupled phosphate release).
`O=C1NCN(c2ccccc2)C12CCN(CCCC(c1ccc(F)cc1)c1ccc(F)cc1)CC2` has an inhibition of 0% (Genome polyprotein NS3 helicase domain; DNA binding, inhibitor; hepatitis C virus; 100 µM, added: Cy5-dT15 DNA).
With `CN(CCO)c1ccc(/C=C(\C#N)c2ccc(C#N)cc2)cc1` the Kd was 37.5 nM (T1, RNA aptamer; fluorescence titration, Hill fit; apparent).
With `N#CC1CCN(C(=O)c2ccc(CNS(=O)(=O)c3ccccc3)cc2)CC1` the SPR response was -8.2 RU and -0.7 RU (WD repeat-containing protein 91 WD40 domain, residues 392–747; binding, SPR single-concentration screen; 45 µM).
For `C[C@@]12C(=O)OC(=O)[C@]1(C)[C@H]1CC[C@@H]2O1`, the inhibition was 0% (Genome polyprotein NS3 helicase domain; DNA binding, inhibitor; hepatitis C virus; 100 µM, added: Cy5-dT15 DNA).
With `CC(=O)N[C@H](C(=O)N1C[C@H](O)C[C@H]1C(=O)NCc1ccc(-c2scnc2C)cc1)C(C)(C)SCCCCCCNC(=O)C[C@@H]1N=C(c2ccc(Cl)cc2)c2c(sc(C)c2C)-n2c(C)nnc21` the ΔH was -2.2 ± 0.3 kcal/mol (BRD4/VHL, BD1; with elongins B/C (Homo sapiens, UniProt O60885+P40337); ternary complex binding, ITC; 25 °C, added: VHL-ElonginB-ElonginC titrated into compound:PROTAC:Brd4^BD1 complex).
The ΔG of `N[C@@H](Cc1c[nH]c2ccccc12)C(=O)O` is reported as -9.16 ± 0.05 kcal/mol (Transcription attenuation protein MtrB (mtrB, Geobacillus stearothermophilus, UniProt Q9X6J6); isothermal titration calorimetry; 25 °C, one-site model).
`O=c1c(-c2ccc(O[C@@H]3O[C@H](CO)[C@@H](O)[C@H](O)[C@H]3O)cc2)coc2cc(O)cc(O)c12` gave a selectivity ratio of 0.715 (ESR1; array formation; PRL-HeLa; relative to: EC50 ERβ over EC50 ERα).
With `COCCc1ccc(OCC(O)CNC(C)C)cc1.O=C(O)C(O)C(O)C(=O)O` (racemic) the inhibition was 1% (Genome polyprotein NS3 helicase domain; DNA binding, inhibitor; hepatitis C virus; 100 µM, added: Cy5-dT15 DNA).
The residence time of `CCCCCCSC[C@H]1CN(Cc2c[nH]c3c(N)ncnc23)C[C@@H]1O` is reported as 22 min (Aminodeoxyfutalosine nucleosidase (Helicobacter pylori, UniProt Q9ZMY2); radiolabel chase ultrafiltration; dissociation half-life of complex).
`O=c1nc(SCc2cc(F)cc(C(F)(F)F)c2)nc(SCc2csc3ccc(Cl)cc23)[nH]1` — result for “mean decatenated DNA”: 0% (TOP2A (Homo sapiens, UniProt P11388); decatenation; 0.49 µM).
`CC[C@H](C)[C@H](NC(=O)[C@H](CCCCN)NC(=O)CNC(=O)[C@@H](NC(=O)[C@@H](NC(=O)[C@H](CCSC)NC(=O)[C@H](Cc1c[nH]cn1)NC(=O)CN)[C@@H](C)O)C(C)C)C(=O)N[C@@H](Cc1ccc(O)cc1)C(=O)N[C@@H](C)C(=O)N[C@@H](C)C(=O)N[C@@H](CCSC)C(=O)N[C@@H](CCSC)C(=O)N[C@@H](C)C(=O)N[C@@H](CCSC)C(=O)N[C@@H](CCC(=O)O)C(=O)N[C@@H](Cc1ccc(O)cc1)C(=O)N[C@@H](Cc1ccc(O)cc1)C(=O)N[C@@H](CCCNC(=N)N)C(=O)N[C@@H](CCC(N)=O)C(=O)N[C@@H](CO)C(=O)N[C@@H](CCCCN)C(=O)N[C@@H](C)C(=O)N[C@@H](CCCCN)C(=O)N[C@@H](CCCCN)C(=O)N[C@@H](CC(C)C)C(=O)N[C@@H](CCC(N)=O)C(=O)N[C@@H](C)C(=O)N[C@@H](CCSC)C(=O)N[C@@H](CCCNC(=N)N)C(=O)O` gave a stoichiometry of 0.9 ± 0.01 (CALM1 Ca2+-bound C-lobe; binding, isothermal titration calorimetry; pH 7.4, 15 °C, Ca2+-bound C-lobe, added: CaV2.1 IQ peptide).
For `COc1cc(F)ccc1-c1ncnc(Nc2cccc(C[S@](C)(=N)=O)c2)n1`, the remaining activity was 92% (TSSK2 (Homo sapiens, UniProt Q96PF2); kinase activity; 10 µM, added: 10 µM ATP).
`Cc1cccc(N2CC(C(=O)O)CC2=O)c1` (centres unmarked) gave a fold enrichment of 0.913 (WD repeat-containing protein 91 (Homo sapiens, UniProt A4D1P6); binding, affinity selection mass spectrometry; relative to: other proteins in batch).
For `Cc1ccc(C[C@H](NC(=O)OC(C)(C)C)C(=O)NC/C=C/S(=O)(=O)c2ccccc2)cc1`, the kinact/Ki was 139000 M⁻¹ s⁻¹ (Rhodesain (rhodesain, Trypanosoma brucei rhodesiense, UniProt Q95PM0); inhibitor; pH 5.5, 37 °C, added: Z-Phe-Arg-AMC).
For `O=C1Nc2ccccc2/C1=C1/Nc2ccccc2/C1=N\O`, the inhibition was 0% (Genome polyprotein NS3 helicase domain; DNA binding, inhibitor; hepatitis C virus; 100 µM, added: Cy5-dT15 DNA).
`Cc1ccccc1-c1cc(C(=O)N2CCN(c3cccc(C(F)(F)F)c3)CC2)c2ccccc2n1` — result for activity class: “active” (RORC (Homo sapiens, UniProt P51449); cell-based; concentration not given).
`CC[C@@H]1[C@H](F)C(=O)N[C@@H]1COc1nccc2cc(C(N)=O)c(OC)cc12` gave an inhibition of 2% (EIF2AK4 (Homo sapiens, UniProt Q9P2K8); ATP-site probe binding, ActivX profiling, refers to: GCN2; THP-1 cell lysate; 0.01 mM, Lys2 site).
With `CC[N+](CC)(CC)CC` the inhibition was 14% (Genome polyprotein NS3 helicase domain; 100 µM).
For `CC(C)c1ccc(C(=O)NCCOc2ccc(C(=O)N3CCC(C#N)CC3)cc2)cc1`, the binding was 2% and -1% (WD repeat-containing protein 91 WD40 domain, residues 392–747; SPR; 45 µM).
`NCCCCC(=O)O` — result for “normalised MST signal”: -0.0148 (SLC6A6 (Homo sapiens, UniProt P31641, Y138A); binding, microscale thermophoresis; 1.95 µM, room temperature, added: 50 nM labelled protein; higher = more binding).
The inhibition of `N[C@@H](C(=O)N[C@@H]1C(=O)N2C(C(=O)O)=C(Cl)CS[C@H]12)c1ccccc1` is reported as 0% (Genome polyprotein NS3 helicase domain; DNA binding, inhibitor; hepatitis C virus; 100 µM, added: Cy5-dT15 DNA).
For `C=CC(=O)N1CCC(COCC(=O)N2CCN(c3nc(-c4cnc(N)nc4C(F)F)nc(N4CCOC[C@@H]4C)n3)CC2)CC1`, the remaining binding was 100% (PRKD1 (Homo sapiens, UniProt Q15139); KINOMEscan; 1 µM).
`Nc1ncnc2c1ncn2[C@@H]1O[C@H](CO[P@](=O)(O)O[P@](=O)(O)O[P@@](=O)(O)S)[C@@H](O)[C@H]1O` gave a ΔH of -0.283 kcal/mol (GUK1 (Homo sapiens, UniProt Q16774); binding, isothermal titration calorimetry; molar ratio 2.83, fitted curve).
The selectivity ratio of `O=C1C[C@@H](c2ccc(O)cc2)Oc2cc(O)cc(O)c21` is reported as 1.29 (ESR1; array formation; PRL-HeLa; relative to: EC50 ERβ over EC50 ERα).
`O=C(O)[C@@H]1C[C@@H](O)CN1` has a product formation of 3.02 µM (N-alpha-acetyltransferase 80 (NAA80, Homo sapiens, UniProt Q93015); substrate, DTNB; 2 mM, 30 min, 37 °C, added: acetyl-CoA 500 µM).
For `Cn1c(=O)c2[nH]cnc2n(C)c1=O`, the activation was 2% (Glutamate receptor 2; ion current, agonist, SyncroPatch patch clamp; HEK293; 30 µM).
With `CC[C@H](C)[C@H](NC(=O)[C@H](CCCCN)NC(=O)CNC(=O)[C@@H](NC(=O)[C@@H](NC(=O)[C@H](CCSC)NC(=O)[C@H](Cc1c[nH]cn1)NC(=O)CN)[C@@H](C)O)C(C)C)C(=O)N[C@@H](Cc1ccc(O)cc1)C(=O)N[C@@H](C)C(=O)N[C@@H](C)C(=O)N[C@@H](CCSC)C(=O)N[C@@H](CCSC)C(=O)N[C@H](C(=O)N[C@@H](CCSC)C(=O)N[C@@H](CCC(=O)O)C(=O)N[C@@H](Cc1ccc(O)cc1)C(=O)N[C@@H](Cc1ccc(O)cc1)C(=O)N[C@@H](CCCNC(=N)N)C(=O)N[C@@H](CCC(N)=O)C(=O)N[C@@H](CO)C(=O)N[C@@H](CCCCN)C(=O)N[C@@H](C)C(=O)N[C@@H](CCCCN)C(=O)N[C@@H](CCCCN)C(=O)N[C@@H](CC(C)C)C(=O)N[C@@H](CCC(N)=O)C(=O)N[C@@H](C)C(=O)N[C@@H](CCSC)C(=O)N[C@@H](CCCNC(=N)N)C(=O)O)[C@@H](C)CC` the ΔS was 49.2 ± 1.3 cal/(mol·K) (CALM1 Ca2+-bound C-lobe; binding, competition ITC; concentration not given, 15 °C, added: pre-formed Ca2+/N-lobe–CaV2.1 IQ complex).
`Nc1ncnc2c1ncn2[C@@H]1O[C@H](COP(=O)(O)CP(=O)(O)OP(=O)(O)O)[C@@H](O)[C@H]1O` gave a specific binding of 87 CCPM and 218 CCPM (P2X purinoceptor 1 (P2RX1, Homo sapiens, UniProt P51575, R292A); saturation binding; HEK293; 103 nM).
The Ki/Km ratio of `CCCCCCCCCCCCCCc1ccc([C@H]2CC[C@H]([N+](C)(C)CCC)CC2)cc1.[I-]` is reported as 3.6 (SPHK1 (Homo sapiens, UniProt Q9NYA1); inhibitor, radiometric flash-plate; cell lysate; added: sphingosine 10 µM).
With `O=C1NC(=O)c2cc(Nc3ccccc3)c(Nc3ccccc3)cc21` the inhibition was 0% (Genome polyprotein NS3 helicase domain; DNA binding, inhibitor; hepatitis C virus; 100 µM, added: Cy5-dT15 DNA).
With `N#CC1CCN(C(=O)c2ccc(CNc3cccc4c3CCCC4)cc2)CC1` the SPR response was 21.2 RU and 11.7 RU (WD repeat-containing protein 91 WD40 domain, residues 392–747; binding, SPR single-concentration screen; 45 µM).
For `Cc1ccc(N2CC(C(N)=O)CC2=O)cc1` (centres unmarked), the fold enrichment was 0.77 (Transducin-like enhancer protein 4 (TLE4, Homo sapiens, UniProt Q04727); binding, affinity selection mass spectrometry; relative to: other proteins in batch).
`COc1cc(/C=C/c2cc(/C=C/c3ccc(O)c(OC)c3)n(-c3ccc(Cl)cc3Cl)n2)ccc1O` gave a binding stoichiometry of 0.5 ± 0.2 (haemin; isothermal titration calorimetry; concentration not given, pH 7.4, 37 °C).
`Nc1ncnc2c1ncn2[C@@H]1O[C@H](COP(=O)(O)OP(=O)(O)OP(=O)(O)O)[C@@H](O)[C@H]1O` gave a normalized current of 1.01 and 0.985 and 1 (P2X purinoceptor 7 (P2rx7, Rattus norvegicus, UniProt Q64663, I214A/Q143A); ion current, agonist, two-electrode voltage clamp; Xenopus laevis oocytes; 8100 µM; relative to: highest concentration response).
`CC(C)(C)NCC(O)c1ccc(O)c(CO)c1.CC(C)(C)NCC(O)c1ccc(O)c(CO)c1.O=S(=O)(O)O` (centres unmarked) has an inhibition of 0% (Genome polyprotein NS3 helicase domain; DNA binding, inhibitor; hepatitis C virus; 100 µM, added: Cy5-dT15 DNA).
`CO[C@H]1O[C@H](COS(=O)(=O)O)[C@@H](O[C@@H]2O[C@@H](C(=O)O)[C@@H](O[C@H]3O[C@H](COS(=O)(=O)O)[C@@H](O[C@@H]4O[C@H](C(=O)O)[C@@H](O[C@H]5O[C@H](COS(=O)(=O)O)[C@@H](O)[C@H](O)[C@H]5NS(=O)(=O)O)[C@H](O)[C@H]4O)[C@H](OS(=O)(=O)O)[C@H]3NS(=O)(=O)O)[C@H](O)[C@H]2OS(=O)(=O)O)[C@H](O)[C@H]1NS(=O)(=O)O` gave an association constant of 226000 ± 18600 M⁻¹ (Beta-2-glycoprotein 1, domain V (APOH, Homo sapiens, UniProt P02749, V266L); isothermal titration calorimetry; 298 K, added: 50 mM NaCl).
`C1=C/COCc2cc(ccc2OCCN2CCCC2)Nc2nccc(n2)-c2cccc(c2)COC/1`: “percent of control” 72% (CIT (Homo sapiens, UniProt O14578); concentration not given).
